Published values from different studies.
Lines come from different studies, so protocols differ. Numbers after ± are the reported error.

Compound	organism	test	test system	conditions	MIC
CC1=CC2(C)C(=C(C)C3C4CC(C)CC(C)C4C4Oc5ccc(cc5)CC5(O)NC(=O)C(=C(O)C2C43)C5Nc2ncnc3c2ncn3C2OC(CO)C(O)C2O)C1C (stereo not drawn)	Staphylococcus aureus, Enterococcus faecalis, Enterococcus faecium	broth microdilution	drug-susceptible and drug-resistant	range over Gram-positive panel	6.3 to 12.5 µM
C[C@@H](c1ccn(Cc2ccc(OC(F)(F)F)cc2)n1)[C@](O)(Cn1cnnn1)c1ccc(F)cc1F	Candidozyma auris	microbial growth	887	24 h, drug-resistant strain, clinical isolate	2 µg/mL
COc1ccc(C2=[N+]([O-])c3ccccc3N3CC(C)(C)CN=C23)cc1	Clostridium sporogenes	microbial growth	ATCC3584		1 µg/mL
CC[C@H](C)[C@H](NC(=O)[C@H](CCCCNC(=N)N)NC(=O)[C@H](CC(N)=O)NC(=O)[C@H](CC(C)C)NC(=O)[C@H](Cc1ccccc1)NC(=O)[C@H](CCCCNC(=N)N)NC(=O)[C@H](CCCCNC(=N)N)NC(=O)[C@H](CC(C)C)NC(=O)[C@H](CC(C)C)NC(=O)[C@H](CCCCNC(=N)N)NC(=O)[C@H](CCCCNC(=N)N)NC(=O)[C@H](CC(C)C)NC(=O)CNC(C)=O)C(=O)N[C@@H](CCCCNC(=N)N)C(=O)N[C@@H](CCCCNC(=N)N)C(N)=O	Citrobacter freundii	bacterial growth, broth microdilution	multidrug-resistant		3.12 µM
CC[C@H](C)[C@@H]1NC(=O)CNC(=O)[C@H](CCCCN)NC(=O)[C@H](C)NC(=O)[C@H](CCC(=O)O)NC(=O)[C@H](Cc2ccccc2)NC(=O)[C@H](CO)NC(=O)[C@H](CC(C)C)NC(=O)[C@H](C(C)C)NC(=O)[C@H](CC(=O)O)NC(=O)[C@@H](NC(=O)[C@@H](NC(=O)[C@@H](N)C(C)C)[C@@H](C)O)CSSC[C@@H]2NC(=O)[C@H](CO)NC(=O)CNC(=O)CNC(=O)[C@H](CCCCN)NC(=O)[C@H](CCCCN)NC(=O)[C@H](CCCNC(=N)N)NC(=O)[C@H](CC(C)C)NC(=O)[C@H](C)NC(=O)[C@H]([C@@H](C)CC)NC(=O)[C@H](CSSC[C@@H](C(=O)N[C@@H](CCCNC(=N)N)C(=O)N[C@@H](CC(N)=O)C(=O)O)NC(=O)[C@H](C(C)C)NC(=O)[C@H](C)NC(=O)[C@H](C(C)C)NC(=O)CNC(=O)[C@H](CC(N)=O)NC(=O)[C@H](CCC(N)=O)NC2=O)NC(=O)[C@H](Cc2c[nH]cn2)NC(=O)[C@H](CC(C)C)NC(=O)[C@H](C)NC(=O)[C@H](C)NC(=O)[C@H](C)NC(=O)[C@H](CO)NC(=O)[C@H](Cc2c[nH]cn2)NC(=O)[C@H](CC(N)=O)NC(=O)[C@H](C(C)C)NC(=O)[C@H](C)NC1=O	Salmonella typhimurium	broth microdilution	KCTC 1926	16 h, 37 °C	> 100 µM
CC(C)c1ccc(Cn2ccc([C@H](C)[C@](O)(Cn3cnnn3)c3ccc(F)cc3F)n2)cc1	Candidozyma auris	microbial growth	D12	24 h, drug-resistant strain, clinical isolate	1 µg/mL
CN[C@@H]1[C@H](O)[C@H](NC)[C@H]2O[C@]3(O)[C@H](O[C@@H]2[C@H]1O)O[C@H](C)C[C@@]3(O)CNCc1ccccc1	Streptococcus pneumoniae		BAA-1407 mefE ermB resistant		13 µg/mL
CCCCCCCc1ccc(NC(=O)CCCN(C)[C@H](C(N)=O)[C@H](O[C@@H]2O[C@H](CN)[C@@H](O)[C@H]2O)[C@H]2O[C@@H](n3ccc(=O)[nH]c3=O)[C@H](O)[C@@H]2O)cc1	Clostridioides difficile	microbial growth	ATCC43596		25 µg/mL
CC(C)C[C@@H]1NC(=O)[C@H](C)NC(=O)[C@@H]2NC(=O)[C@H](CO)NC(=O)[C@@H](CCCCN)NC(=O)[C@H](NC(=O)[C@@H](N)Cc3ccccc3)CCCCCCCC[C@H](NC1=O)C(=O)O[C@H]2C	Bacillus subtilis Staphylococcus epidermidis		ATCC 14990	tested as TFA salt	8 µg/mL
CN(Cc1cc(C2CC2)on1)C(=O)c1cccc(-c2ccc3c(c2)CCO3)c1	Cryptococcus neoformans		sgf29∆ mutant		> 64 µg/mL
C=C(NC(=O)C(=C)NC(=O)c1csc(C2=NC3c4csc(n4)C4NC(=O)c5csc(n5)C(C(C)(O)C(C)O)NC(=O)C5CSC(=N5)C(=CC)NC(=O)C(C(C)O)NC(=O)c5csc(n5)C3(CC2)NC(=O)C(C)NC(=O)C(=C)NC(=O)C(=CC)NC(=O)C(C(C)CC)NC2C=Cc3c(C(C)O)cc(nc3C2O)C(=O)OC4C)n1)C(N)=O (stereo not drawn)	Bacillus sp.	broth microdilution	ATCC 27859	18 h, 37 °C	0.11 µg/mL
O=C(/C=C/CI)O[C@@H]1COC(=O)C1	Vibrio harveyi		BB120		105 µM
[O-][N+]1=C(c2ccsc2)C2=NCCCN2c2ccccc21	Clostridium sporogenes	microbial growth	ATCC3584		1 µg/mL
O=C(NCc1nc(-c2ccc(Br)cc2)c[nH]1)Nc1ncc(Sc2ccccn2)s1	Bifidobacterium breve	broth microdilution	ATCC 11863	without verapamil	> 128 µM
CC[C@H](C)[C@H](NC(=O)[C@H](C)NC(=O)CNC(=O)[C@@H](N)CCSC)C(=O)N[C@@H](C)C(=O)N[C@@H](CCCCN)C(=O)N[C@@H](CC(C)C)C(=O)N[C@H](C(=O)N[C@@H](C)C(=O)N[C@@H](CCCCN)C(=O)N[C@@H](Cc1ccccc1)C(=O)NCC(=O)N[C@@H](Cc1c[nH]c2ccccc12)C(=O)N1CCC[C@H]1C(=O)N[C@@H](Cc1ccccc1)C(=O)N[C@H](C(=O)N[C@@H](CCCCN)C(=O)N[C@@H](CCCCN)C(=O)N[C@@H](Cc1ccccc1)C(=O)N[C@@H](Cc1ccc(O)cc1)C(=O)N[C@@H](CCCCN)C(=O)N[C@@H](CCC(N)=O)C(=O)N[C@H](C(=O)N[C@@H](CCSC)C(=O)N[C@@H](CCC(N)=O)C(=O)N[C@@H](Cc1ccccc1)C(=O)N[C@H](C(=O)NCC(=O)N[C@@H](CCC(N)=O)C(=O)NCC(=O)N[C@@H](Cc1c[nH]c2ccccc12)C(=O)N[C@H](C(=O)N[C@H](C(=O)N[C@@H](CC(=O)O)C(=O)N[C@@H](CCC(N)=O)C(=O)N[C@H](C(=O)N[C@@H](CCC(=O)O)C(=O)N[C@@H](CCCCN)C(=O)N[C@@H](Cc1c[nH]c2ccccc12)C(=O)N[C@@H](CC(C)C)C(=O)N[C@@H](CCCCN)C(=O)N[C@@H](CCCNC(=N)N)C(=O)N[C@@H](Cc1c[nH]cn1)C(=O)O)[C@@H](C)CC)[C@@H](C)CC)[C@@H](C)O)[C@@H](C)CC)[C@@H](C)CC)[C@@H](C)CC)C(C)C	Bacillus subtilis subsp. subtilis		ATCC 23857	10 h	10.6 ± 0.1 µM
[O-][N+]1=C(c2ccccc2)C2=NCCN2c2ccccc21	Clostridioides difficile	microbial growth	ATCC43255		1 µg/mL
CC(=O)NC1C(OC2OC(CC(O)C3OC(n4ccc(=O)[nH]c4=O)C(O)C3O)C(O)C(O)C2NC(=O)C=CCCCCCCCCCC(C)C)OC(CO)C(O)C1O (stereo not drawn)	Streptococcus salivarius		ATCC 7752		> 50 µg/mL
OB(O)c1cnn(-c2cccc(Cl)c2)c1	Citrobacter freundii	bacterial growth	AmpC-overproducing clinical isolate	cefotaxime alone	4 µg/mL
[O-][N+]1=C(Cc2ccccc2)C2=NCCCN2c2ccccc21	Clostridioides difficile	microbial growth	ATCC43255		32 µg/mL
C[C@@H](c1ccn(Cc2ccc(Cl)cc2Cl)n1)[C@](O)(Cn1cnnn1)c1ccc(F)cc1F	Candidozyma auris	growth	789 drug-resistant isolate	24 h, 30 °C, ≥50% inhibition	16 µg/mL
CC[C@H](C)[C@H](NC(=O)[C@H](CO)NC(=O)[C@H](CO)NC(=O)[C@H](Cc1ccccc1)NC(=O)CN)C(=O)N[C@@H](Cc1ccccc1)C(=O)N[C@@H](CCCNC(=N)N)C(=O)NCC(=O)N[C@H](C(=O)N[C@@H](C)C(=O)N[C@@H](CCCCN)C(N)=O)C(C)C	Escherichia coli		ATCC 8739	with: 2.5 mM CaCl2	> 128 µM
CN[C@@H]1[C@H](O)[C@H](NC)[C@H]2O[C@]3(O)[C@H](O[C@@H]2[C@H]1O)O[C@H](C)C[C@@]3(O)CNCc1ccc(F)cc1	Streptococcus pneumoniae		R6 drug sensitive		3 µg/mL
CC[C@H](C)[C@H](NC(=O)[C@H](CCCN)NC(=O)[C@H](CC(N)=O)NC(=O)[C@H](CC(C)C)NC(=O)[C@H](Cc1ccccc1)NC(=O)[C@H](CCCN)NC(=O)[C@H](CCCCNC(=N)N)NC(=O)[C@H](CC(C)C)NC(=O)[C@H](CC(C)C)NC(=O)[C@H](CCCN)NC(=O)[C@H](CCCCNC(=N)N)NC(=O)[C@H](CC(C)C)NC(=O)CNC(C)=O)C(=O)N[C@@H](CCCN)C(=O)N[C@@H](CCCCNC(=N)N)C(N)=O	Enterobacter aerogenes	broth microdilution	multidrug-resistant		12.5 µM
CC(C)C[C@@H]1NC(=O)[C@H](C)NC(=O)[C@H](NC(=O)[C@H](CO)NC(=O)[C@@H](CCCCN)NC(=O)[C@@H](CC(C)C)N(C)C(=O)[C@@H](N)Cc2ccccc2)[C@H](C)OC(=O)[C@H](CC(C)C)NC1=O	Bacillus subtilis Staphylococcus epidermidis		ATCC 14990	tested as TFA salt	> 32 µg/mL

Some of these lines once more:
Compound	organism	test	test system	conditions	MIC
OB(O)c1cnn(-c2cccc(Cl)c2)c1	Citrobacter freundii	bacterial growth	AmpC-overproducing clinical isolate	cefotaxime alone	4 µg/mL
[O-][N+]1=C(Cc2ccccc2)C2=NCCCN2c2ccccc21	Clostridioides difficile	microbial growth	ATCC43255		32 µg/mL
C[C@@H](c1ccn(Cc2ccc(Cl)cc2Cl)n1)[C@](O)(Cn1cnnn1)c1ccc(F)cc1F	Candidozyma auris	growth	789 drug-resistant isolate	24 h, 30 °C, ≥50% inhibition	16 µg/mL
